Measurements pooled from the literature.
A part holds a random share of what one study measured. Substitutions count along the parent as printed.

Sample 1
Target: UDP-N-acetylglucosamine--peptide N-acetylglucosaminyltransferase 110 kDa subunit (OGT, Homo sapiens, UniProt O15294)
Observed: binding
Technique: phage display NGS
Molecule type: peptide
Setting: panning round 2
Relative to: input library
Residues (O15294 1-1046): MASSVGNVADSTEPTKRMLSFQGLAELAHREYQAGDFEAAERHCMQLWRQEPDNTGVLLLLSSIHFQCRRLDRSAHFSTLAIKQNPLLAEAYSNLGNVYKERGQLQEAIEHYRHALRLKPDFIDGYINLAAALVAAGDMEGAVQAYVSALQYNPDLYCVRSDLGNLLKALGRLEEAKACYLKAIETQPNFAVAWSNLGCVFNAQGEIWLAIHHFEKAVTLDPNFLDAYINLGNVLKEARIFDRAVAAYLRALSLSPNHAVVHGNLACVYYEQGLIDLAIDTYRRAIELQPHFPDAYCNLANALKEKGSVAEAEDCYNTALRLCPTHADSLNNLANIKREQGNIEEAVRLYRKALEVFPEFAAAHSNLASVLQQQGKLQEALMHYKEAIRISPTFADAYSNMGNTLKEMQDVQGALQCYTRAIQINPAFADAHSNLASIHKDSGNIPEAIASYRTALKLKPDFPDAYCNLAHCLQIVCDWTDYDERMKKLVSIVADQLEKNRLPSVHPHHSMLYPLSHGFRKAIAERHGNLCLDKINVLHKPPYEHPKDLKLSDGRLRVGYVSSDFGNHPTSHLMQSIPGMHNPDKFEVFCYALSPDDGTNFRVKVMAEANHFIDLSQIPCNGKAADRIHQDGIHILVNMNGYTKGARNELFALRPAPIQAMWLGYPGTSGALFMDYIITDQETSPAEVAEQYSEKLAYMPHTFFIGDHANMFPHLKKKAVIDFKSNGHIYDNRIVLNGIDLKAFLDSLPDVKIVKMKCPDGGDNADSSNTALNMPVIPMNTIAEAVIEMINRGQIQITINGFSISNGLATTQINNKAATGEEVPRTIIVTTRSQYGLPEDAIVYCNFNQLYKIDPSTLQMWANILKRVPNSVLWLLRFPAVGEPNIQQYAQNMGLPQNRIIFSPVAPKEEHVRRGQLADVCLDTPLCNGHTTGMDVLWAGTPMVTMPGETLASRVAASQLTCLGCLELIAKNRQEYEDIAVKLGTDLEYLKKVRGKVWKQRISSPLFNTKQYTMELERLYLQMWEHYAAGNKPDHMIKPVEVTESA
Molecule	minimum log2 enrichment ratio
IYLPIYQIQAQWPFK	3.83
HPSHRWHYNETHTD	2.84
QQFSKLFPPKYTIDF	6.73

Sample 2
Target: TAR DNA-binding protein 43, full length, His tag (TARDBP, Homo sapiens, UniProt Q13148, residues 1-414)
Technique: RNA Bind-n-Seq
Molecule type: RNA
Sample: in vitro
Tested at: 20 nM
Setting: 6-mer, flanks averaged, single round
Together with: 150 mM KCl
Relative to: input library
Direction: higher = stronger binding
Sequence	6-mer enrichment (R)
GCUUUU	0.686
GAUAUU	0.631
CAUACA	0.599
UGGCUG	1.34
AACUUG	0.632
CAUUCC	0.557
CUGAGC	0.794
CAACGG	1.09

Sample 3
Target: Interferon regulatory factor 7, full length, phosphomimetic (IRF7, Homo sapiens, UniProt Q92985, residues 1-503, S101K/S471D/S472D/S475D/S476D/S477D/S483D/S484D/S487D)
Technique: protein-binding microarray
Molecule type: double-stranded DNA, one strand shown
Sample: in vitro
Tested at: 250 nM
Setting: 60-bp whole probe
Together with: salmon DNA 0.4 mg/ml
Relative to: random background probes
Direction: higher = stronger binding
All sequences stand within: GCCTAGCAC … GTCTTGATTCGCTTGACGCTGCTG
Target sequence (chain): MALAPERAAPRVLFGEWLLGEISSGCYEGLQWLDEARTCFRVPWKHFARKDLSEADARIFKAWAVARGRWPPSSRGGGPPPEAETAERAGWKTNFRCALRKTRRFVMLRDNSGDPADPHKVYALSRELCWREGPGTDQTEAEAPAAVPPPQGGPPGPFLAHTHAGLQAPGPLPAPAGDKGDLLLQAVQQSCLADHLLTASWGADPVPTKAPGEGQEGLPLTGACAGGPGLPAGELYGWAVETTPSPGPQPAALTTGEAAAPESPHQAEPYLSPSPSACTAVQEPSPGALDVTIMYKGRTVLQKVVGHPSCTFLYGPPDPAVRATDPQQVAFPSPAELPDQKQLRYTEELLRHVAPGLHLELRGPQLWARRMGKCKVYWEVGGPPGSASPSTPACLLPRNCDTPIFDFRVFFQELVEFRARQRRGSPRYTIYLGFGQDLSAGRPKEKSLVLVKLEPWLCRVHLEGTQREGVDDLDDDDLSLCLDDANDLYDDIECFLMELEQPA
Sequence	log fluorescence
CTGAGATGCATTCTGGGCCCGTGCTAG	-0.46 z-score
TTAGGTTTCCTTTTCCTTTTGTGCTAG	7.07 z-score
TTAGTTTTCAGACTGGATTAGTGCTAG	0.838 z-score
GACGGTGTCCTTTTCCTGACGTGCTAG	0.0684 z-score
GACGATCTCAGTATCGAGATGTGCTAG	0.24 z-score
GACGATATCGGGTTTCTAGACGTGCTA	0.43 z-score
TCATTTTTTTTTTTTTGACTGTGCTAG	0.836 z-score
TTAGGTTTCGGGCTCGGTTAGTGCTAG	4.15 z-score

Sample 4
Variant: N114R
Target: ABI1, truncated, D143A, DHFR fusion (Arabidopsis thaliana)
Technique: DHFR PCA, deep sequencing
Sample: yeast
Setting: methotrexate growth selection, single substitutions
Relative to: wild-type fitted maximum
Direction: higher = stronger binding
Starting sequence: PYL1, truncated, DHFR fusion (Arabidopsis thaliana); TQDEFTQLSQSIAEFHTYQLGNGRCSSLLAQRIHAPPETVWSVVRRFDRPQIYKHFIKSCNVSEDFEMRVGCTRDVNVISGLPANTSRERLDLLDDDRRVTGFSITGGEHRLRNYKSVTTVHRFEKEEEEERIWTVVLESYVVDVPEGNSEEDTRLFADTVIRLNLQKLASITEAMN; partner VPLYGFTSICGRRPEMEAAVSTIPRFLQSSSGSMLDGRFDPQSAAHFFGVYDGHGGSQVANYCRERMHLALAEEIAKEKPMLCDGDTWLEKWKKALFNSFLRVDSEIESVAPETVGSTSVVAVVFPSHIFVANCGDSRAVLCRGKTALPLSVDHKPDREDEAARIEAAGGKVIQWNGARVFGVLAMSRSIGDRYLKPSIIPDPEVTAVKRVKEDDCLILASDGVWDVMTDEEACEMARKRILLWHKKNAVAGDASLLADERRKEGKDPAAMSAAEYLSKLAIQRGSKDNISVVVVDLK
together with	relative binding score
(+)-ABA 0.39 µM	1.35%
(+)-ABA 200 µM	81.1%
(+)-ABA 17 µM	44%
(+)-ABA 710 µM	94.2%
(+)-ABA 0.11 µM	-8.05%
(+)-ABA 0.032 µM	5.28%

Sample 5
Target: CCNA2, cyclin fold, Cln2 fusion (human)
Technique: yeast growth competition, sequencing
Sample: yeast
Setting: strong parent motif
Relative to: not given
Direction: higher = stronger binding
Starting sequence: viral docking peptide; KGVKRKLFAEDSS
Variant	normalised enrichment score
KGDKRKLFAEDSS [V3D]	0.081
KGSKRKLFAEDSS [V3S]	4.34
KGVKRKLFAEGSS [D11G]	6.49
KGVKRKLFYEDSS [A9Y]	6.44
KGVSRKLFAEDSS [K4S]	6.33
KGVDRKLFAEDSS [K4D]	1.3
KGVKRELFAEDSS [K6E]	5.7
KGVKRKLFASDSS [E10S]	5.81
KGVKRKLQAEDSS [F8Q]	0.585
KGKKRKLFAEDSS [V3K]	1.21
KGVKRKLFAEESS [D11E]	6.35
KGVKRKLFAEDRS [S12R]	6.28
KGVKRMLFAEDSS [K6M]	5.85
KGVKRILFAEDSS [K6I]	4.8
KGPKRKLFAEDSS [V3P]	5.93
KGVKRKLFAEDSA [S13A]	6.98
KGVKRKLFAEQSS [D11Q]	5.97
KEVKRKLFAEDSS [G2E]	6.1
KGVKRKLSAEDSS [F8S]	0.0886
KYVKRKLFAEDSS [G2Y]	5.68
KGVKRKLIAEDSS [F8I]	1.42
KGVKRKLFIEDSS [A9I]	6.05
KGVKRKLPAEDSS [F8P]	0.293
KGVKRKLCAEDSS [F8C]	0.506
KGVCRKLFAEDSS [K4C]	6.11

Mixed results
P1: PafA, mature enzyme, eGFP fusion (Elizabethkingia meningoseptica, UniProt Q9KJX5); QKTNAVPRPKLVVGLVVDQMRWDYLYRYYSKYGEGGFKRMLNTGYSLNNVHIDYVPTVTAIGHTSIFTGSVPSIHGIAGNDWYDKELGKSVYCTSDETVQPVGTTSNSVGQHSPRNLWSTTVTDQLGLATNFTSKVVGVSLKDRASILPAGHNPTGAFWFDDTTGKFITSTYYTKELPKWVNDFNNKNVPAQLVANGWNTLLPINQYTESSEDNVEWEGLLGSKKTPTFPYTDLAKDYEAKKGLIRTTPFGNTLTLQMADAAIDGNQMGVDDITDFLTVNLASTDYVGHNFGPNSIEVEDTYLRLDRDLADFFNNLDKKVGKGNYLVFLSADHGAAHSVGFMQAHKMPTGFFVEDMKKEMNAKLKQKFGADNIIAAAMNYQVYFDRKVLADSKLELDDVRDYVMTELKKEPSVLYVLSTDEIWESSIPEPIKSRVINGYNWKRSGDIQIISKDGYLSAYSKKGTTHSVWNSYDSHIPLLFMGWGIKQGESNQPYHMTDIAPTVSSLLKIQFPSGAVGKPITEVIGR
Substance	target or system	assay	system	conditions	how to read	quantity	result
NUP54 (Homo sapiens, UniProt Q7Z3B4)	NUP58 (Homo sapiens, UniProt Q9BVL2)	cross-linking MS	–	hits only	–	interaction screen	cross-linked
P1 Y302G	tungstate, free oxyanion	microfluidic competitive inhibition	in vitro, cell-free expressed	not given, derived from inhibition constants, unchanged parent 2230 nM	lower = stronger binding	oxyanion analog dissociation constant	2420 nM
SPTB (Homo sapiens, UniProt P11277)	BAZ1A (Homo sapiens, UniProt Q9NRL2)	cross-linking MS	cell fractions	together with: DSSO	–	cross-linked residues	K630 to K387
NUP98 (Homo sapiens, UniProt P52948)	NUP160 (Homo sapiens, UniProt Q12769)	cross-linking MS	cell fractions	together with: DSSO	–	cross-linked residues	K1749 to K1096
CDH2 (Homo sapiens, UniProt P19022)	CTNNA1 (Homo sapiens, UniProt P35221)	cross-linking MS	cell fractions	together with: DSSO	–	cross-linked residues	K896 to S48

Excerpt of the above (sample 5):
Variant	normalised enrichment score
KGVKRILFAEDSS [K6I]	4.8
KGVKRMLFAEDSS [K6M]	5.85
KEVKRKLFAEDSS [G2E]	6.1
KGVCRKLFAEDSS [K4C]	6.11
KGSKRKLFAEDSS [V3S]	4.34
